Measurements gathered from unrelated publications.
Each line is one published result; not all experiments were run side by side. ± marks the error that the study gave. In brackets after ≈: the same amount, converted by molar mass.

SMILES | target or system | test | test system | conditions | measurement | result
CCOP(=O)(OCC)C(Cc1cccc(F)c1F)Nc1cccc(C)c1 (stereo not shown) | T98G | cell growth or viability, MTT |  | 48 h | IC50 | 71.3 µM
C[C@@H](C(=O)Nc1ccc(Cn2cc(C(F)(F)F)ccc2=O)cc1)N(C)C | NIH3T3 | cell proliferation, CCK-8 |  |  | IC50 | 310 ± 3.7 µM
N#C/C(=C\c1cn(-c2ccccc2)nc1-c1ccc([N+](=O)[O-])cc1)c1nc2ccccc2[nH]1 | SW1990 | cell growth or viability, ATP luminescence |  | 72 h | IC50 | 61.8 µM
CC1=CC(c2ccccc2)=[O+][Pt-2]([NH3+])([NH3+])[O]1.O=[N+]([O-])[O-] (stereo not shown) | U2OS | cell growth or viability, MTT |  |  | IC50 | 8 µM
CCn1cc(/C=C/c2ccc3ccccc3[n+]2CC)c2ccccc21 | HFF | cell growth or viability, MTT |  | 24 h | IC50 | > 20 µM
O=C(/C=C/c1coc2ccccc2c1=O)N1CCN(C(=S)SC2CC2)CC1 | tomato spotted wilt virus | virus inactivation, half-leaf method | Nicotiana glutinosa | tested 31.25 to 500 µg/mL | EC50 | 358 ± 7.6 µg/mL (≈ 895 µM)
CC(=O)OC1CCC(OC(C)=O)O1 (racemic) | human T lymphocytes | interleukin-2 release, inhibitor, ELISA |  | pre-treated 2 h, together with: concanavalin A 50 µg/mL 48 h | IC50 | > 10 µM
CC(C)c1cccc(C(C)C)c1-n1ccn(-c2c(C(C)C)cccc2C(C)C)c1=[Se].[Cl][Ag] | LoVo | cell growth or viability, MTT |  | 72 h | IC50 | 3.1 µM
CC(=O)O[C@@H]1CC[C@@]2(C)[C@@H](CC[C@]3(C)[C@@H]2C(=O)C=C2[C@@H]4[C@@H](C)[C@H](C)CC[C@]4(C)CC[C@]23C)[C@@]1(C)C(=O)NCCNC(=O)CCBr | HBE | cell growth or viability, MTT |  | 48 h | IC50 | 8.06 µM
CCCC(CCC)C(=O)[O][Pt]([NH2])([NH2])([Cl])([Cl])[O]C(=O)C(C)c1ccc(CC(C)C)cc1 (stereo not shown) | LoVo | cell growth or viability, MTT |  | 72 h | IC50 | 0.034 µM
N=C(N)NCCC[C@H](N)C(=O)N[C@@H](CC(=O)N[C@@H](CC(=O)O)c1cccc2ccccc12)c1cccc2ccccc12 | MCF-7 (no HER2 overexpression) |  |  |  | IC50 | > 50 µM
NCCCCCCN1N=C(c2ccc(NC(=O)N3Cc4ccncc4C3)cc2)CC(c2cccc3ncccc23)C1=O (stereo not shown) | MDA-MB-453 | cell growth or viability, ATP luminescence |  |  | IC50 | < 3e-05 µM
Cc1cc(N)c2cc(NC(=O)Nc3ccc4nc(C)cc(N)c4c3)ccc2n1 | CHO wild type | FGF2 binding to heparan sulfate, inhibitor, flow cytometry |  | on ice, together with: biotinylated FGF2 2.5 nM | IC50 | 1.6 ± 0.04 µM
O=C(Cc1ccc2ccccc2c1)N[C@H](Cc1ccccc1)C(=O)N[C@H](Cc1ccc(OP(=O)(O)O)cc1)C(=O)N[C@H](Cc1ccccc1)C(=O)N[C@H](Cc1ccc(OP(=O)(O)O)cc1)C(=O)O | T98G | cell growth or viability, MTT |  |  | IC50 | 367 µg/mL
O=c1[nH]c(=O)n([C@@H]2O[C@H](CO)[C@@H](O)[C@H](F)[C@H]2O)cc1F | Molt4/C8 | cell growth or viability |  |  | IC50 | > 200 µM
Cc1cc(C)c(-n2c3c([n+](-c4c(C)cc(C)cc4C)[c]2[Au-][Cl])-c2cccc4cccc-3c24)c(C)c1 | 2008 | cell growth, MTT |  | 72 h | IC50 | 8 ± 1 µM
COc1ccc2cc3[n+](cc2c1OCc1cn(Cc2ccc(C#N)cc2)nn1)CCc1cc2c(cc1-3)OCO2 | SW1990 | cell growth or viability, MTT |  |  | IC50 | 101 µM
CN(C)/C=C/C(=O)c1ccc2[nH]c3ncc(-c4ccc(N5CCN(C)CC5)cc4)cc3c2c1 | Ba/F3 NPM-ALK wild type | cell proliferation, [3H]-thymidine incorporation |  |  | IC50 | 0.39 µM
CC(=O)O[C@@H]1CC[C@@]2(C)[C@@H](CC[C@]3(C)[C@@H]2C(=O)C=C2[C@@H]4[C@@H](C)[C@H](C)CC[C@]4(C)CC[C@]23C)[C@@]1(C)C(=O)NCCNC(=O)C1CC1 | HBE | cell growth or viability, MTT |  | 48 h | IC50 | 18.5 µM
Cc1ccc(C(C)C)cc1.[Au][S]C1=NCCS1.[Cl][Ru][Cl].c1ccc(P(CP(c2ccccc2)c2ccccc2)c2ccccc2)cc1 | L929 | cell growth or viability, trypan blue |  | 48 h | IC50 | 48.6 µM
CC(=O)Oc1ccccc1C(=O)[O][Pt]([NH2])([NH2])([Cl])([Cl])[O]C(=O)CCCc1ccccc1 | BCPAP | cell growth or viability, MTT |  | 72 h | IC50 | 0.06 µM
CCOC12C(O)C(OC)C3(O)CC(C1C3OC(=O)c1ccccc1)C13C(OC)CCC4(COC)CN(C)C1C2C(OC)C43 (stereo not shown) | HBE | cell growth or viability, MTT |  |  | IC50 | 25.5 µM
COc1ccc2cc3[n+](cc2c1OCc1cn(Cc2ccc(Cl)cc2F)nn1)CCc1cc2c(cc1-3)OCO2 | SW1990 | cell growth or viability, MTT |  |  | IC50 | 38.9 µM
C[O][Pt-2]([NH3+])([NH3+])([Cl])([Cl])[O]C(=O)CCC(=O)O | SW480 | cell growth or viability, MTT |  | 96 h | IC50 | 129 µM
CC1=C2[O][Ru-]([Cl])[O+]=C2C=CN1CCCCCCCCCCCCN1C=CC2=[O+][Ru-]([Cl])[O]C2=C1C.Cc1ccc(C(C)C)cc1.Cc1ccc(C(C)C)cc1 | SISO | cell growth or viability, crystal violet |  | 96 h | IC50 | 2.5 µM

SMILES | target or system | test | test system | conditions | measurement | result
CCCCCCCCCCCCCCCCn1c(-c2cccnc2)nc(-c2ccc(C)cc2)c1-c1ccc(C)cc1 | L929 | cell growth or viability, SRB |  |  | IC50 | 409 µM
N=C(N/N=C/c1ccccc1)N/N=C/c1ccccc1 | KP-4 | cell growth or viability, crystal violet |  | 72 h | IC50 | 9.3 µM
CC(C)(C)ONc1nc(Nc2ccnc(C(F)(F)F)c2)nc(-c2cccc(C(F)(F)F)n2)n1 | TF-1 IDH2 R172K |  |  | 72 h | IC50 | 0.0409 ± 0.0016 µM
CCCCCCCC(=O)NCCNC(=O)[C@@]1(C)[C@H](O)CC[C@@]2(C)[C@H]1CC[C@]1(C)[C@@H]2C(=O)C=C2[C@@H]3[C@@H](C)[C@H](C)CC[C@]3(C)CC[C@]21C | HBE | cell growth or viability, MTT |  | 48 h | IC50 | 8.28 µM
CC(C)c1cccc(C(C)C)c1-n1c(Cl)c(Cl)n(-c2c(C(C)C)cccc2C(C)C)c1=[Se].[Cl][Au] | LoVo | cell growth or viability, MTT |  | 72 h | IC50 | 3.9 µM
CC1OC(OCC2OC(Oc3cc(O)c4c(=O)cc(-c5ccc(O)c(O)c5)oc4c3)C(O)C(O)C2O)C(O)C(O)C1O (stereo not shown) | HCT-116 p53-/- colon cancer | cytotoxicity, resazurin reduction |  | 72 h | IC50 | > 100 µM
Cc1cc(/C=C/C#N)cc(C)c1Oc1cc(Nc2ccc(C#N)cn2)nc2cnccc12 | HuCC-A1 |  |  | 48 h | IC50 | 5.6 ± 1.3 µM
N[C@@H](CCC(=O)N[C@@H](CS[Se]Cc1ccc(-c2cc(C(F)(F)F)nn2-c2ccc(S(N)(=O)=O)cc2)cc1)C(=O)NCC(=O)O)C(=O)O | human melanoma cell lines | cell viability, MTS |  |  | IC50 | 7.66 µM
CCCSC(=S)N1CCN(C(=O)/C=C/c2coc3ccccc3c2=O)CC1 | tomato spotted wilt virus | virus inactivation, half-leaf method | Nicotiana glutinosa | tested 31.25 to 500 µg/mL | EC50 | 595 ± 13.9 µg/mL (≈ 1480 µM)
COc1ccc2cc3[n+](cc2c1OCc1cn(Cc2ccc(C(C)(C)C)cc2)nn1)CCc1cc2c(cc1-3)OCO2 | SW1990 | cell growth or viability, MTT |  |  | IC50 | 8.54 µM
CC(=O)O[C@@H]1CC[C@@]2(C)[C@@H](CC[C@]3(C)[C@@H]2C(=O)C=C2[C@@H]4[C@@H](C)[C@H](C)CC[C@]4(C)CC[C@]23C)[C@@]1(C)C(=O)NCCNC(=O)OC(C)(C)C | HBE | cell growth or viability, MTT |  | 48 h | IC50 | > 30 µM
CCN(CC)c1ccc2c(c1)Oc1cc(N(CC)CC)ccc1C21c2ccccc2C(=O)N1N=Cc1c[c-]c(-c2ccccn2)cc1.Cc1c(C)c(-c2ccc(-c3ccccc3)cc2)[c-](C)c1C.[Cl-].[Ir+3] | A549 human cancer cells | cell growth, MTT |  | 24 h | IC50 | 36.8 ± 1.6 µM
Cc1cc(C=O)cc(C)c1Oc1cc(Nc2ccc(C#N)cc2)nc2ccncc12 | HuCC-A1 |  |  | 48 h | IC50 | 103 ± 5.4 µM
COC(=O)[C@H]1[C@H]2C[C@H]3O[C@@]4(CCN3C[C@H]2C[C@@H](OC(=O)c2cc(OC)c(OC)c(OC)c2)[C@@H]1OC)C(=O)Nc1cc(OC)c(-c2ccc(C(C)(C)C)cc2)cc14 | RS4-11 | cell growth or viability, trypan blue |  | 72 h | IC50 | 21.3 µM
CCCC(=O)Oc1c(C)c(OC)c2c(/C=C/c3ccccc3)c(CC)c(=O)oc2c1C | FaDu | cell growth or viability, SRB |  | 72 h | IC50 | > 50 µM
O=C1/C(=C/c2ccccc2F)CNC/C1=C\c1ccccc1F | BGC-823 | cell growth or viability, MTT |  | 72 h | IC50 | 2.3 µM
CC1(C)Cc2c(-c3ccccc3)c(-c3ccc(Cl)cc3)c(CC(=O)O)n2C1 | human Macrophage | PGE2 release, inhibitor |  | 24 h, LPS-stimulated | IC50 | 0.56 µM
N=C(N)NCCC[C@H](N)C(=O)N1CCC[C@H]1C(=O)N[C@@H](CC(=O)N[C@@H](Cc1ccc(O)cc1)C(=O)O)c1cccc2ccccc12 | MCF-7 (no HER2 overexpression) |  |  |  | IC50 | > 50 µM
CCOP(=O)(OCC)C(Cc1c(F)c(F)c(Sc2ccc(OC)cc2)c(F)c1F)Nc1ccccc1 (stereo not shown) | U-118-MG | cell growth or viability, MTT |  | 48 h | IC50 | 33.2 µM
Cc1c(C)n(-c2c(C(C)C)cccc2C(C)C)c(=[Se])n1-c1c(C(C)C)cccc1C(C)C.[Cl][Ag] | LoVo | cell growth or viability, MTT |  | 72 h | IC50 | 3.6 µM
O=C1C(Br)=C(Br)C(=O)c2ccccc21 | HuCC-A1 | cell growth or viability, MTT |  |  | IC50 | 48.3 µM
COCC12CCC(OC)C34C5CC6(O)C(OC)C(=O)C(C5C6O)C(C(OC)C13)C4N(C)C2 (stereo not shown) | HBE | cell growth or viability, MTT |  |  | IC50 | 32.6 µM
Cc1cc(/C=C/c2ccc(O)c(O)c2)[nH]n1 | mouse Splenic lymphocyte | cell growth or viability, MTT |  | 48 h | IC50 | > 100 µM
CCCCCCCCCCn1c(-c2cccnc2)nc(-c2ccc(C)cc2)c1-c1ccc(C)cc1 | L929 | cell growth or viability, SRB |  |  | IC50 | 199 µM

Excerpt of the above:
SMILES | target or system | test | test system | conditions | measurement | result
CC(=O)O[C@@H]1CC[C@@]2(C)[C@@H](CC[C@]3(C)[C@@H]2C(=O)C=C2[C@@H]4[C@@H](C)[C@H](C)CC[C@]4(C)CC[C@]23C)[C@@]1(C)C(=O)NCCNC(=O)OC(C)(C)C | HBE | cell growth or viability, MTT |  | 48 h | IC50 | > 30 µM
CCN(CC)c1ccc2c(c1)Oc1cc(N(CC)CC)ccc1C21c2ccccc2C(=O)N1N=Cc1c[c-]c(-c2ccccn2)cc1.Cc1c(C)c(-c2ccc(-c3ccccc3)cc2)[c-](C)c1C.[Cl-].[Ir+3] | A549 human cancer cells | cell growth, MTT |  | 24 h | IC50 | 36.8 ± 1.6 µM
Cc1cc(C=O)cc(C)c1Oc1cc(Nc2ccc(C#N)cc2)nc2ccncc12 | HuCC-A1 |  |  | 48 h | IC50 | 103 ± 5.4 µM
